Published values collected from several papers.
Lines come from different studies, so protocols differ. Numbers after ± are the reported error.
USP49 ZnF-UBD domain: Ubiquitin carboxyl-terminal hydrolase 49, ZnF-UBD domain (USP49, Homo sapiens, UniProt Q70CQ1)
Sequence of UniProt Q70CQ1 (whole entry, looked up): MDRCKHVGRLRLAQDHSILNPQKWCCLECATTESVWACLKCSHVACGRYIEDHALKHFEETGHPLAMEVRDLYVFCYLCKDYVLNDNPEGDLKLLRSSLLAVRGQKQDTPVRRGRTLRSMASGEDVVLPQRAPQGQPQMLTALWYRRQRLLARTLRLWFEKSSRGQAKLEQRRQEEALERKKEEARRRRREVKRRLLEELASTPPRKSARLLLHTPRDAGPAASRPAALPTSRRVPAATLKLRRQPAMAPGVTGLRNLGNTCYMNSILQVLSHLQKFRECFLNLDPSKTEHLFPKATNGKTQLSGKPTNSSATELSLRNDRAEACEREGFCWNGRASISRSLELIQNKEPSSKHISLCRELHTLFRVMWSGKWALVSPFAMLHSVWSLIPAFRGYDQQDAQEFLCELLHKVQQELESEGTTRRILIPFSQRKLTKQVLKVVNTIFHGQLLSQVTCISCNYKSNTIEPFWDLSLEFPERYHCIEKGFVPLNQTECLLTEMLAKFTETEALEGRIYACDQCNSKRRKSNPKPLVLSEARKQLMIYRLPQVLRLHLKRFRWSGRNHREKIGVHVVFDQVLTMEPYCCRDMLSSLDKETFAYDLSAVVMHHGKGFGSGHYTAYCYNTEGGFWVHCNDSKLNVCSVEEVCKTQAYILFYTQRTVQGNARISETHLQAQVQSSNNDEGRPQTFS

Structure (SMILES)	target or system	test	system	setting	how to read	measurement	value
C[C@@H](N)C1CCN(S(=O)(=O)c2cccc3cnccc23)CC1			healthy volunteers	75 mg, fasted		participants with orthostatic hypotension	0%
O=C(O)CN1CCCN2CCN(Cc3ccccc3)CCCN(CC1)Cc1cccc(n1)C2			64Cu complex	2 h, 70 °C, added: DOTA excess		intact complex	98%
CNc1ccc(-c2nc3ccc(O)cc3s2)cc1 [carbon-11 labelled]		ex vivo biodistribution	APP/PS1 mouse, AD model, bladder	intravenous, 30 min		SUV	11.4 ± 7.54
Cc1cn(-c2cc(NC(=O)c3ccc(C)c(Nc4nccc(-c5cccnc5)n4)c3)cc(C(F)(F)F)c2)cn1		population PK model, typical value	human, both sexes, plasma	oral		secondary depot absorption rate constant	0.14 h⁻¹
CC1(C)OC[C@H](C2CCCCC2)N[C@@H]1c1ccc(Cl)c(Cl)c1		shake-flask, 1-octanol/buffer		pH 7.4		logD	> 4.7
O=S(=O)(NCc1ccccn1)c1ccc(Cl)c(Cl)c1Cl			octanol/buffer	pH 7.4		logD	3.05
C[C@@]1(c2cc(NC(=O)c3ccc(C#N)cn3)ccc2F)C=CSC(N)=N1			elderly humans, both sexes, plasma	oral, 1 mg single dose		dose-normalised Cmax	5.62 ng/mL
Cl.[2H]C([2H])([2H])CC(=O)c1cnc(NC(=O)C2CC2)cc1Nc1cccc(-c2ncn(C([2H])([2H])[2H])n2)c1OC			human, fed, multiple dose	oral, 60 mg once daily, tablet, day 1, median		Tmax	3.12 h
Cc1cc(C)c(CNC(=O)c2cc(Cl)c3c(c2C)O[C@@](C)([C@H]2CC[C@H](N(C)C)CC2)O3)c(=O)[nH]1		CTCAE v4.0	human, relapsed/refractory NHL	oral, 200 mg once daily, overall, onset after cycle 1 day 1		grade ≥3 TEAE patients	66.7%
OC[C@H]1O[C@@H](c2ccc(Cl)c(Cc3ccc(O[C@H]4CCOC4)cc3)c2)[C@H](O)[C@@H](O)[C@@H]1O			human, plasma	oral, steady state, EV treatment		Vdss/F	86.1 ± 18.4 L
[O]=[Co].[O]=[Co][O][Co]=[O]			rat, female, urine, 24-h collection	oral gavage, single, 300 mg/kg (220 mg Co/kg), day 1, vehicle 0.5% HPMC		creatinine-corrected cobalt concentration	0.76 µg/µmol creatinine
NC(=O)NCCC(=O)O		binding, equilibrium dialysis LC-MS		5 µM, thermostabilized A2AR-BRIL construct	relative to: no-protein control, direction not given	z-scored log2 fold change	-1.47
O=C(O)CCn1cnc2ccccc21	USP49 ZnF-UBD domain					Kd	> 1000 µM
C[C@@H](Nc1cc(F)cc(F)c1)c1cc(C(=O)N(C)C)cc2c(=O)cc(N3CCOCC3)oc12			human, plasma	oral, 30 mg, day 1 single dose		Cmax geometric mean	153 ng/mL
Cn1cnc2c(F)c(Nc3ccc(Br)cc3Cl)c(C(=O)NOCCO)cc21		population PK model	human, plasma	oral, sequential zero-first-order absorption, fed		absorption lag time	0.66 h
N[C@@H](CC(=O)O)C(=O)O		binding, equilibrium dialysis LC-MS		5 µM, thermostabilized A2AR-BRIL construct	relative to: no-protein control, direction not given	z-scored log2 fold change	0.302
CCN1/C(=C/C(C)=O)Sc2ccc(F)cc21			cynomolgus monkey	oral, 100 mg/kg, 6 h post-dose	relative to: pre-dose	systolic blood pressure change	103 ± 8.3%
C=CC(=O)NC1CCN(c2ncc3ncnc(Nc4ccc(Oc5ccc6c(c5)ncn6C)c(C)c4)c3n2)CC1			human, male, plasma	oral, 240 mg, fed	relative to: fasted	AUC0-∞ increase	~26%
CCO[C@H]1CCN(Cc2c(OC)cc(C)c3[nH]ccc23)[C@H](c2ccc(C(=O)O)cc2)C1			human moderate hepatic impairment, plasma	oral, 200 mg single dose, geometric mean		unbound AUC(0-12)	4430 ng·h/mL
O=C(O)CCC(=O)Nc1cccc2ccccc12	USP49 ZnF-UBD domain					Kd	> 1000 µM
CO[C@H]1C[C@@H]2CC[C@@H](C)[C@@](O)(O2)C(=O)C(=O)N2CCCC[C@H]2C(=O)O[C@H]([C@H](C)C[C@@H]2CC[C@@H](O)[C@H](OC)C2)CC(=O)[C@H](C)/C=C(\C)[C@@H](O)[C@@H](OC)C(=O)[C@H](C)C[C@H](C)/C=C/C=C/C=C/1C			healthy adult horses	oral, 0.06 mg/kg, 72 h		rectal temperature	37.2 ± 0.2 °C
